{"data": "Measured values gathered from unrelated publications", "note": "Parts stem from different laboratories: compare values within a part only. Positions count from the first letter of the parent shown."}
{"data": "Set 1", "target": "RING finger protein unkempt homolog, zinc fingers 1-6, SBP tag (UNK, Homo sapiens, UniProt Q9C0B0, residues 30-357)", "method": "RNA Bind-n-Seq", "form": "RNA", "medium": "in vitro", "tested at": "100 nM", "notes": "RNA with constant flanks, vertebrate orthologous sites, ends assumed", "reference": "input RNA pool", "direction": "higher = stronger binding", "constant ends, left off below": "GGGAGUUCUACAGUCCGACGAUC … CAACAGAGGAUUGAGCAUCA", "sequence of UniProt Q9C0B0 (30-357, looked up)": "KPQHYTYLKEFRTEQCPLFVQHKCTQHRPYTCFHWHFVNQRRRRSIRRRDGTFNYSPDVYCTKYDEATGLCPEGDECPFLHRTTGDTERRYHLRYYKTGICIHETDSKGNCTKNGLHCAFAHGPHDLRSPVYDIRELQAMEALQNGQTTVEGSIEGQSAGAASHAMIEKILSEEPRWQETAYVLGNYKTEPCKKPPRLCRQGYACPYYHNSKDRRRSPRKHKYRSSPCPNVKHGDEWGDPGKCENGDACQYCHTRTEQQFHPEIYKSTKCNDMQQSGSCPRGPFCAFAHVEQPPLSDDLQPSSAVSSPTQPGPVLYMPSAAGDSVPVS"}
{"Strand": "GUGUUUGUCUUGCACAUGGCAGUGUUUAUAUUGAGGAUCUUCUGAGGAGGAAGGGGUGCCUAGUGGUGGUGCCUGGGUUCCUGGCCUCUAGCGCCCCACCCGCCUCAGCACCCUGCCUGG", "bound/input enrichment [ratio]": 0.405}
{"Strand": "UCUCUCACCUAACUGUGCCCAAAAUUGCUAGGAGGGUUGGAAACGCUCAUUAGUUUCAUGUAGAACUACACUGGCAGGUGCUCAAUUACCGUCAUAGCAAGAUCAAAUACCAUCACAGUA", "bound/input enrichment [ratio]": 0.565}
{"Strand": "AUUCAUCUCUCACUUAAUGUCCAAAAUUACUGAGGGUUUGAAACAUUUAGUAGUUUCACAUAGAGCUACACUGGCAGGUGCUCUAAUACUAUCAUAGUGAGAUCAGAUACCAUUGUAGUA", "bound/input enrichment [ratio]": 0.719}
{"Strand": "CGAAAGUUAGAGCAAAAGAGCCAAGCAGUAGAAUAUUUUUUUUGUAAAUGUAAAACUAAUUAGAUCCAGACUUUGUUUCCUUCUUCAGUUUUAAAAAUAAAAAAAUACCUCAGUGCUAUG", "bound/input enrichment [ratio]": 0.54}
{"Strand": "ACUCUAGUUCUUAACAACCGACACUCCUAAAAGAGUUAGAAAAAAGUUUACAACAUAAUCUAGUUUACAAAGAAGUCUUGUGCUAGAAUACUUUUUAAAAAGUAUUUUUGAAUACCAUUA", "bound/input enrichment [ratio]": 0.629}
{"Strand": "UAUAAGAACUCUUGCAGUCUUAGAUGUUAUAAAAAUACGUAUACCAAUUGUAAGAGUUGUUAGCACAGAUUUUUUUCUUUUCUUUUUUUUAAGCACUUGUUUUGGGUACAAGGCAUUUCU", "bound/input enrichment [ratio]": 0.546}
{"Strand": "CCAGAAUUUUAACCAAGAAUCUGAAGGUAGAAAUACAGGACCAUGGUUAUCUUCUUCACUUAGAAAUAGAUGCACACCCUUGUUCUCUAGAAGGAGACGAGAGGGACGAGAUGAAUCUUC", "bound/input enrichment [ratio]": 0.567}
{"Strand": "GCUGUGAUCCCUUUAACAUACACAGAAAACUGUCCAAGAAAAACCUGCGAGCAGUUGACUUAGAUGAUGCAGCUUUUCUGAGUGCCAAGUUUGGAAGACAGUUUGUUCCUGGUUGGAAGC", "bound/input enrichment [ratio]": 0.361}
{"Strand": "CUCGGGGAUACCGUGGGGCGCUGCUGACUGCUUCGCGUCGUUUGAUUUGUGACCUUGACAUAAUAGAUAGGCUUGUGGUUUGUUUGUUUUUUUAAUUUAAAGAUAUUAAAACUUAAUUCA", "bound/input enrichment [ratio]": 0.538}
{"Strand": "AUUAAAUGUGUAUCAAAUGCUGGAUAUCCCAUUAAACCAUCAUUUAGGAUAGAUGUUAGUUUGUUAUAAUUAAGCUACAAAUAGGUUUCCUUAAACCAGAAAUGCACUGCCCUUGUCUGA", "bound/input enrichment [ratio]": 0.385}
{"Strand": "GUUGGUGCAGGGCGCUCUCUGUACCAGUGCCCAUCAUCCCUUCUUCAUACCAACUGUCCCUAGUUAUAGGAAUUUAAUAUUUUUAAAAGUUUUACAUUGCUGUAUAUUCAAAGAUUUGUU", "bound/input enrichment [ratio]": 0.877}
{"data": "Set 2", "target": "CCNA2, cyclin fold, Cln2 fusion (human)", "method": "yeast growth competition, sequencing", "medium": "yeast", "notes": "weak parent motif", "reference": "not given", "direction": "higher = stronger binding", "starting sequence": "SLBP docking peptide (human); ARYKRKLLINDFG"}
{"Change": "D11Y", "normalised enrichment score": 2.75}
{"Change": "L8N", "normalised enrichment score": 1.57}
{"Change": "I9L", "normalised enrichment score": 1.54}
{"Change": "R5M", "normalised enrichment score": 1.6}
{"Change": "D11F", "normalised enrichment score": 2.12}
{"Change": "D11C", "normalised enrichment score": 2.18}
{"Change": "K6H", "normalised enrichment score": 0.015}
{"Change": "D11E", "normalised enrichment score": 1.79}
{"Change": "L8Q", "normalised enrichment score": 1.17}
{"Change": "L8W", "normalised enrichment score": 2.28}
{"data": "Single results of other studies"}
{"Molecule": "PhoQ, residues 284 288 289 292 302 303 TLASMF", "target or system": "PhoP, residues 12 14 15 18 19 STWGI (Escherichia coli, UniProt P23836)", "test": "Sort-seq, measured: YFP reporter", "test system": "E. coli", "setting": "PhoQ-PhoP variant library, added: 10 µM Mg2+", "how to read": "reference: high Mg2+ state, higher = stronger signaling", "quantity": "fold induction", "result": 3.01}
{"Molecule": "MYH9 (Homo sapiens, UniProt P35579)", "target or system": "MYH10 (Homo sapiens, UniProt P35580)", "test": "cross-linking MS", "test system": "cell fractions", "setting": "added: DMTMM", "quantity": "cross-linked residues", "result": "E1149 to K1256"}
{"note": "Repeated from above (single results of other studies):"}
{"Molecule": "PhoQ, residues 284 288 289 292 302 303 TLASMF", "target or system": "PhoP, residues 12 14 15 18 19 STWGI (Escherichia coli, UniProt P23836)", "test": "Sort-seq, measured: YFP reporter", "test system": "E. coli", "setting": "PhoQ-PhoP variant library, added: 10 µM Mg2+", "how to read": "reference: high Mg2+ state, higher = stronger signaling", "quantity": "fold induction", "result": 3.01}
{"Molecule": "MYH9 (Homo sapiens, UniProt P35579)", "target or system": "MYH10 (Homo sapiens, UniProt P35580)", "test": "cross-linking MS", "test system": "cell fractions", "setting": "added: DMTMM", "quantity": "cross-linked residues", "result": "E1149 to K1256"}
